Measurements gathered from unrelated publications.
Compare with care: the assays were run in different laboratories. “And” joins repeats or separate records; there may be more than shown.
Cell line: HEK-293T

The IC50 of NCCOCCOCCNC(=O)Cc1ccc(Nc2nc(NCc3ccc(F)cc3)nc(NCC3CCCCC3)n2)cc1 is reported as 58.9 µM (cytotoxicity, CCK-8; 48 h, 10% FBS).
For COc1cc(/C=C/C=C2\SC(=S)NC2=O)ccc1O, the viability was 1.03 and 0.982 (CellTiter-Glo; 10 µM, 24 h, unit not given; baseline: untreated).
OB1c2sccc2C=NN1Cc1ccccc1 has an IC50 of over 100 µM (cell growth or viability, MTT; 48 h).
Under cell viability, Cc1ncsc1-c1ccc(CNC(=O)[C@@H]2C[C@@H](O)CN2C(=O)[C@@H](NC(=O)COCc2cn(CCOCCOCCOc3cc(C(=O)c4cc(Cl)ccc4NS(=O)(=O)c4ccc(C(C)(C)C)cc4)cc[n+]3[O-])nn2)C(C)(C)C)cc1 is recorded as “not toxic” (CellTiter-Blue; 0.1 to 2500 nM, 14 h).
The EC50 of Cc1nc(NCCOCCOCCNc2ncc(C(=O)NC3=NN(c4ccc(Cl)c(Cl)c4)CC3)c(C)n2)ncc1C(=O)NC1=NN(c2ccc(Cl)c(Cl)c2)CC1 is reported as over 3000 nM (cytotoxicity; 72 h, 10% FBS).
For Cc1ccc(S(=O)(=O)N/N=C/c2ccsc2B(O)O)cc1, the IC50 was over 100 µM (cell growth or viability, MTT; 48 h).
Under “peptide amount per protein”, CC(C)C[C@@H]1NC(=O)[C@H](CO)NC(=O)[C@H](CC(=O)O)NC(=O)[C@@H]2CCCN2C(=O)[C@H]2CCCN2C(=O)[C@H](C(C)C)NC(=O)[C@H](CC(=O)O)NC(=O)[C@H](CC(N)=O)NC(=O)[C@H](CCCNC(=N)N)NC(=O)[C@H]([C@@H](C)O)NC(=O)[C@H](C(C)C)NC(=O)CCNC(=O)CCNC(=O)[C@H](Cc2ccccc2)NC(=O)[C@H](C(C)C)NC(=O)[C@H](CC(C)C)NC1=O is recorded as “not detected” (subcellular fractionation LC-MS; nuclear fraction; 20 µM, 2 h).
With C=CS(=O)(=O)c1ccccc1 the viability was 30 to 40% (cell growth or viability, MTT; 12.5 µg/mL, 24 h).
CC(=O)N[C@H](C(=O)N[C@H](C(=O)N[C@@H](CCCNC(=N)N)C(=O)N[C@@H](CC(N)=O)C(=O)N[C@@H](CC(=O)O)C(=O)N[C@H](C(=O)N1CCC[C@@H]1C(=O)N1CCC[C@H]1C(=O)N[C@@H](CC(=O)O)C(=O)N[C@@H](CO)C(=O)N[C@@H](CC(C)C)C(=O)N[C@@H](CC(C)C)C(=O)N[C@H](C(=O)N[C@@H](Cc1ccccc1)C(N)=O)C(C)C)C(C)C)[C@@H](C)O)C(C)C — result for “peptide amount per protein”: “not detected” (subcellular fractionation LC-MS; nuclear fraction; 20 µM, 2 h).
CC(=O)N[C@@H](Cc1c[nH]c2ccccc12)C(=O)N[C@@H](Cc1c[nH]c2ccccc12)C(=O)N[C@@H](Cc1c[nH]c2ccccc12)C(=O)N[C@@H](Cc1c[nH]c2ccccc12)C(=O)NCCCC[C@@H]1NC(=O)[C@H](CCCNC(=N)N)NC(=O)[C@H](CCCNC(=N)N)NC(=O)[C@H](CCCNC(=N)N)NC(=O)[C@H](CCCNC(=N)N)NC(=O)[C@H](CCCNC(=N)N)NC1=O has a viability of at least 86% (MTS; concentration not given, 24 h, up to 10 µM).

For quick reference, copied from above:
CC(=O)N[C@H](C(=O)N[C@H](C(=O)N[C@@H](CCCNC(=N)N)C(=O)N[C@@H](CC(N)=O)C(=O)N[C@@H](CC(=O)O)C(=O)N[C@H](C(=O)N1CCC[C@@H]1C(=O)N1CCC[C@H]1C(=O)N[C@@H](CC(=O)O)C(=O)N[C@@H](CO)C(=O)N[C@@H](CC(C)C)C(=O)N[C@@H](CC(C)C)C(=O)N[C@H](C(=O)N[C@@H](Cc1ccccc1)C(N)=O)C(C)C)C(C)C)[C@@H](C)O)C(C)C — result for “peptide amount per protein”: “not detected” (subcellular fractionation LC-MS; nuclear fraction; 20 µM, 2 h).
